Experimental data of several laboratories.
Parts stem from different laboratories: compare values within a part only. Changes are numbered by the printed parent chain.

Study 1
Target: CCNE1, cyclin fold, Cln2 fusion (human)
Method: yeast growth competition, sequencing
Medium: yeast
Notes: weak parent motif
Baseline: not given
Direction: higher = stronger binding
Starting sequence: MASTL docking peptide (human); PMIAKNLMCELDE
`PMIAKNLMCELME [D12M]`: “normalised enrichment score” 0.0729.
For `PMIAKNLMCVLDE [E10V]`, “normalised enrichment score” read -0.107.
Under “normalised enrichment score”, `PMIAKNLMWELDE [C9W]` is recorded as -0.0993.
Under “normalised enrichment score”, `PMIAKNLMCETDE [L11T]` is recorded as -0.048.
`PMIAKNAMCELDE [L7A]` — result for “normalised enrichment score”: -0.223.
`PMIAKSLMCELDE [N6S]`: “normalised enrichment score” -0.158.
Under “normalised enrichment score”, `PMNAKNLMCELDE [I3N]` is recorded as -0.0188.
Under “normalised enrichment score”, `PMVAKNLMCELDE [I3V]` is recorded as -0.2.
For `PMIAKLLMCELDE [N6L]`, “normalised enrichment score” read -0.135.
`PMIFKNLMCELDE [A4F]`: “normalised enrichment score” 0.292.
`PMIAKNLMCESDE [L11S]` — result for “normalised enrichment score”: -0.027.
For `PMIRKNLMCELDE [A4R]`, “normalised enrichment score” read 0.237.
`PMPAKNLMCELDE [I3P]` — result for “normalised enrichment score”: 0.124.
For `PMIAFNLMCELDE [K5F]`, “normalised enrichment score” read -0.17.
For `PMIAKDLMCELDE [N6D]`, “normalised enrichment score” read 0.334.
`PMIAKNLMCEADE [L11A]`: “normalised enrichment score” 0.0322.
`PMIAKNFMCELDE [L7F]`: “normalised enrichment score” -0.0341.
For `PMIAKNLMQELDE [C9Q]`, “normalised enrichment score” read 0.0772.
Under “normalised enrichment score”, `PMIAWNLMCELDE [K5W]` is recorded as 0.306.
`PMIAKNLMCELKE [D12K]`: “normalised enrichment score” 0.0612.
`PMWAKNLMCELDE [I3W]` — result for “normalised enrichment score”: 0.00608.
`PMIAKNLMCEQDE [L11Q]` — result for “normalised enrichment score”: 0.116.
`PMIAKNLMEELDE [C9E]` — result for “normalised enrichment score”: -0.0723.
For `PMIAENLMCELDE [K5E]`, “normalised enrichment score” read 0.251.
`PMIAKNLLCELDE [M8L]`: “normalised enrichment score” -0.0353.

Study 2
Target: Histone acetyltransferase KAT6A, both winged helices, GST fusion (KAT6A, Homo sapiens, UniProt Q92794, residues 1-181)
Method: protein binding microarray
Form: double-stranded DNA, one strand shown
Medium: in vitro
Tested at: not given
Notes: 8-mer, flanks averaged, mean of 2 arrays, mostly near background
Baseline: not given
Direction: higher = stronger binding
Target sequence (chain): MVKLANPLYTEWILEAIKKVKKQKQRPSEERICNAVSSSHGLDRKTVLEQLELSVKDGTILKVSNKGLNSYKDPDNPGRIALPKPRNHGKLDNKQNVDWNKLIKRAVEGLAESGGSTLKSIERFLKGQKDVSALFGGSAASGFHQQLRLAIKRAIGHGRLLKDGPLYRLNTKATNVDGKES
For `ATAGTGGC`, the E-score was -0.0248.
The E-score of `GCGTTGAC` is reported as 0.0131.
For `CAATTAGC`, the E-score was 0.094.
The E-score of `CTTATCGA` is reported as -0.0958.
For `ACGGTTTC`, the E-score was 0.112.
For `ACACCAGT`, the E-score was -0.179.
With `CATACAGG` the E-score was -0.211.
For `GCTCCTTA`, the E-score was 0.00718.
With `AAGGTTCG` the E-score was 0.0355.
`GGCTTGGA` gave an E-score of -0.0973.
For `ACCCAGCA`, the E-score was -0.158.
The E-score of `AGCAGGAG` is reported as -0.111.
`AACGTTCA` has an E-score of 0.044.
`ACAGATCG` gave an E-score of 0.0389.
`AGCAGATG` has an E-score of -0.3.
The E-score of `AGTATAAC` is reported as -0.0669.
With `AGCTCATG` the E-score was 0.0174.
`CAAACAAG` has an E-score of -0.0365.
For `ACCCTAGT`, the E-score was -0.24.
For `GTCCACGA`, the E-score was 0.0389.
With `GAGTGCAA` the E-score was -0.112.
The E-score of `CAACTATG` is reported as -0.0305.
With `CCAGGCTA` the E-score was -0.177.
`ACCTGGCA` gave an E-score of -0.203.
`AAGGCTCA` has an E-score of -0.179.

Study 3
Target: RNA binding protein fox-1 homolog 2, RRM domain, GST-SBP tag (RBFOX2, Homo sapiens, UniProt O43251-10, residues 100-194)
Method: RNA Bind-n-Seq
Form: RNA
Medium: in vitro
Tested at: 365 nM
Notes: natural RNA segment, single round, ends assumed
Baseline: no-protein control
Direction: higher = stronger binding
Constant ends, left off below: GGGAGUUCUACAGUCCGACGAUC … UGGAAUUCUCGGGUGCCAA
Construct (chain): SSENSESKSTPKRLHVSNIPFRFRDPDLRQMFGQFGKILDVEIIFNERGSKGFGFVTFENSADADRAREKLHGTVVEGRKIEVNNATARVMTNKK
For `AAUAAAACAUCAAAUUAGGUUUGGAGGGAACUUUGAUCUUCCUAAGAAUUAAAGUUGCCAAAUUAUUCUGAUUGGUCUUUAAUCUCCUUAAGUUUUUGAUUUAUCUUACU`, “RBNS enrichment (R)” read 0.433.
Under “RBNS enrichment (R)”, `UGUUGUCUCCUCCUAAUGUCCACCUCAGUGACGAGGUUCCACACUGUCUCCUCACCUCUUGUCACGGCUUCCCUAUGUGGAUAUAUAAAGAACCAAACUGAUUCGCUGUU` is recorded as 0.608.
`CCUGGCAGAGCGCCCCUGGCGCCUGAGACUACCACCCACUCCGUUCCUGCCAGAAACGACCCUCUGUGGCCGAUGGGCCAUGCGGGCCCCUCGCAGCCAACUCAGCCAGU`: “RBNS enrichment (R)” 0.265.
`CCACAGGUCUUGAUGUGACUUUUGCAUUGAAAAUCCAAACCAAAGGAGCUCUUCAAGAAAAGCAGAGUUCUUCUCGUUCUUGUUCAAUCCUAAAAGCAGAUGUUUUGCCA`: “RBNS enrichment (R)” 0.334.
`AAACCCCACACUAUGUAAUAGAAACACAUGUGUUUUUAUGUCUCAAAUAAAACUAUUAUAUCACUUGUCUCAGGCUCUAGAAACUUCUUUUCCACAGGUCAAUCCAAAUU` — result for “RBNS enrichment (R)”: 0.722.
Under “RBNS enrichment (R)”, `GGAUCGGGCCCCCGUAGUCCUGGCAGCCCUGUUGUCUGGAGGGUUCUUGUUGUCCCUCCCAUUAGCCAGGGCGGAGACUGUCUGAGCUGUGCAGGAGGAGGGUUGCUAGU` is recorded as 0.613.
For `AGUCCUUACCUCUGUCGGCAGCUCAGAGCCUCCACAUUUUUAUAUUUAAUUCUCAUGAUAAAUUAGCCACCAUAAUCCCAUGGAAUUAGGUCUUGUUAAAAUCUAGUCCG`, “RBNS enrichment (R)” read 0.504.
`GAAAAUGCAGAUUUGGGGACAAAGGUCUUUUUACUGCUCAAGUAGGGUCGCUUCUGUCCUGUUGCAAUCAUGUCCAAGUUUGUUUUUAGUGUGGACUUUUGUGGGCACUG`: “RBNS enrichment (R)” 0.947.

Study 4
Target: ABI1, truncated, D143A, DHFR fusion (Arabidopsis thaliana)
Method: DHFR PCA, deep sequencing
Medium: yeast
Notes: methotrexate growth selection, single substitutions
Together with: (+)-ABA 0.39 µM
Baseline: wild-type fitted maximum
Direction: higher = stronger binding
Starting sequence: PYL1, truncated, DHFR fusion (Arabidopsis thaliana); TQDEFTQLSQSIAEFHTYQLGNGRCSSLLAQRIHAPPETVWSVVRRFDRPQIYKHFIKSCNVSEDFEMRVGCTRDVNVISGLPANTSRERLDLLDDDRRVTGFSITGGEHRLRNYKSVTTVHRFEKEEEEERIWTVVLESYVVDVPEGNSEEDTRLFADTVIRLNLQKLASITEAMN
`E125S` — result for “relative binding score”: 56.4%.
For `D92P`, “relative binding score” read -3.95%.
`S27Y`: “relative binding score” 8.68%.
Under “relative binding score”, `L112Q` is recorded as -0.767%.
`R99I`: “relative binding score” -8.06%.
Under “relative binding score”, `V100N` is recorded as -11%.
For `V161I`, “relative binding score” read 84.4%.
Under “relative binding score”, `L138H` is recorded as 11.8%.
Under “relative binding score”, `T6I` is recorded as 50.6%.
For `L94H`, “relative binding score” read 28.5%.
Under “relative binding score”, `E147M` is recorded as 12.6%.
For `V136C`, “relative binding score” read 8.06%.
`E64S`: “relative binding score” 49.3%.

Study 5
Target: Sal-like protein 4, full length isoform B (SALL4, Homo sapiens, UniProt Q9UJQ4-2, residues 1-616)
Method: universal PBM
Form: double-stranded DNA, one strand shown
Medium: in vitro
Tested at: not given
Notes: 8-mer, flanks averaged, mean of replicates
Direction: higher = stronger binding
Target sequence (chain): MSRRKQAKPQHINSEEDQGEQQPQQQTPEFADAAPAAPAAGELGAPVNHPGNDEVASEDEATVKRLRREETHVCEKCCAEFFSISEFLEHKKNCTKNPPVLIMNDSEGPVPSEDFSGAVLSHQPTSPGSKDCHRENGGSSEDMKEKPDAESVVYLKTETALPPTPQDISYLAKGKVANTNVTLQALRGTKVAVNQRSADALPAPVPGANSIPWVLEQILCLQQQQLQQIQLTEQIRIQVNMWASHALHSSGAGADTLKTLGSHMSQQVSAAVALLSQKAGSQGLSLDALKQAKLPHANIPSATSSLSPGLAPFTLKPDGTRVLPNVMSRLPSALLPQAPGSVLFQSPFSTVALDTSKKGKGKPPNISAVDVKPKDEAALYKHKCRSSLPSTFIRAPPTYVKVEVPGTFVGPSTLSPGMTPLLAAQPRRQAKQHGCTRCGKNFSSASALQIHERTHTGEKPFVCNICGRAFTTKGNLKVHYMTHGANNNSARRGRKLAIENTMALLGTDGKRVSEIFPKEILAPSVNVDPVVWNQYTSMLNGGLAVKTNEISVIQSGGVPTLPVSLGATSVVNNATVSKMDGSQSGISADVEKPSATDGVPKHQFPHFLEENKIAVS
The E-score of `ACGTCCCG` is reported as -0.363.
For `AAACGCTA`, the E-score was 0.0423.
For `ACATCTCC`, the E-score was 0.0267.
`AAGTTTTA` gave an E-score of 0.228.
The E-score of `AGGCTTAC` is reported as -0.056.
For `AGCTATAG`, the E-score was 0.134.
`TAGCCCGA` gave an E-score of -0.237.
`ACTCATCA` has an E-score of -0.00874.
With `GAGCGCAA` the E-score was -0.19.
`GCGACCGC` gave an E-score of -0.244.
`AGGCAATC` has an E-score of -0.0563.
For `ATTTAGTC`, the E-score was 0.13.
For `ACAATTAT`, the E-score was 0.424.
`ATGAACTC` gave an E-score of 0.017.
With `AGTATTGG` the E-score was 0.167.
For `AACGAGGC`, the E-score was -0.196.
`AATGGACC` has an E-score of 0.00732.
`CCTGCACC` has an E-score of -0.307.
The E-score of `CAGAAGCG` is reported as -0.0648.
For `AAATAACT`, the E-score was 0.278.
The E-score of `GATAAGGA` is reported as 0.108.
For `GTCCCCCA`, the E-score was -0.309.
With `AGAACCGA` the E-score was -0.192.
For `CGAGCCAA`, the E-score was -0.148.
The E-score of `AATCCGTA` is reported as 0.0526.

Single results of other studies
The fold induction of `PhoQ, residues 284 288 289 292 302 303 NLMGRA` is reported as 16.6 (PhoP, residues 12 14 15 18 19 IQFRS (Escherichia coli, UniProt P23836); Sort-seq, refers to: YFP reporter; E. coli; PhoQ-PhoP variant library, together with: 10 µM Mg2+; baseline: high Mg2+ state, higher = stronger signaling).

A few entries again (study 1):
`PMIAKSLMCELDE [N6S]`: “normalised enrichment score” -0.158.
Under “normalised enrichment score”, `PMNAKNLMCELDE [I3N]` is recorded as -0.0188.
Under “normalised enrichment score”, `PMVAKNLMCELDE [I3V]` is recorded as -0.2.
For `PMIAKLLMCELDE [N6L]`, “normalised enrichment score” read -0.135.
`PMIFKNLMCELDE [A4F]`: “normalised enrichment score” 0.292.
`PMIAKNLMCESDE [L11S]` — result for “normalised enrichment score”: -0.027.
For `PMIRKNLMCELDE [A4R]`, “normalised enrichment score” read 0.237.
`PMPAKNLMCELDE [I3P]` — result for “normalised enrichment score”: 0.124.
For `PMIAFNLMCELDE [K5F]`, “normalised enrichment score” read -0.17.
For `PMIAKDLMCELDE [N6D]`, “normalised enrichment score” read 0.334.
`PMIAKNLMCEADE [L11A]`: “normalised enrichment score” 0.0322.
